Published values from different studies.
Compare with care: the assays were run in different laboratories. Values joined by “and” are separate records of one study, mostly repeats; a detail may differ. ± marks the error that the study gave.

SMILES | assay | test system | setting | how to read | measurement | value
C=CC(=C)CC[C@]1(C)[C@H](C)C[C@H](OC(=O)CCCCCCC)[C@@]23C(=C[C@H](OC(C)=O)C[C@@H]12)[C@@H](OC(C)=O)O[C@H]3OC(C)=O | haemolysis | – | 20 µM | – | haemolysis | 1%
Cc1cc(O)cc(O)c1C(=O)c1c2c3c(c(O)cc(C)c3oc1=O)C(=O)c1c(O)cc(O)cc1-2 | – | mouse, bone marrow | intraperitoneal, 100 mg/kg, 30 h | – | micronucleated PCEs per 1000 PCEs | 12.5 ± 5.26
CCCC(CCC)NC(=O)c1ccc(O)c(OC)c1 | LC-MS extracted ion chromatogram | Sprague-Dawley rat, male and female, pooled plasma | oral, 200 mg/kg, 1 h | – | peak area | 1.61e+07 cps
O=[11C](N1CCC(CNS(=O)(=O)c2ccc(Cl)cc2)CC1)n1cncn1 | PET | Sprague-Dawley rat, brain | intravenous, 60 min | – | whole brain uptake | ~0.4 SUV
COc1cc(-c2nc3ccccc3s2)cc(CN(C)Cc2ccccn2)c1O | UV-vis spectrophotometric titration | MeOH-water, MeOH up to 20% | 50 µM | – | pKa3 | 7.64
CCC1CNC(CC)CN(C(C(=O)O)c2ccc(C(=O)O)cc2)C(CC)CN(CC(=O)O)C(CC)CN1 (stereo not drawn) | pH-potentiometric titration | – | 25 °C, 0.1 M KCl | – | sum log K3 + log K4 | 8
COC(=O)c1ccc(-c2cn(Cc3cc(Cl)ccc3O[11CH3])nn2)cc1 | PET/CT | C57BL/6 mouse, heart | 2 min | – | peak uptake | 2.32 %ID/cc
CC(C)[C@H](NC(=O)CNC(=O)[C@H](CCC(N)=O)NC(=O)[C@H](C)N)C(=O)O | LC-MS/MS | human, male, plasma | intravenous, 20 mg/kg three times daily, day 1, first dose, 10 min infusion, geometric mean | – | volume of distribution | 8 L/kg
NC(=O)c1ccc(C(=O)NOCc2ccc(Sc3cccc(Cl)c3)c(C(F)(F)F)c2)cc1 | – | male ICR mouse, plasma | intravenous, 10 mg/kg | – | Vss | 0.0929 L/kg
Cc1c(C)c(C)[c-](C)c1C.[C-]#[O+].[C-]#[O+].[C-]#[O+].[Cl-].[Cl-].[Cl-].[Ir+3].[Re+].c1cnc(-c2ncccn2)nc1 | cyclic voltammetry | 0.1 M Na2SO4, gold electrode | scan rate 50 mV/s | – | redox potential | -0.512 V vs Ag/AgCl
CNc1cc(OC)c(Nc2nccc(-c3cn(C4CC4)c4ccccc34)n2)cc1NC(=O)CCSCC(NC(C)=O)C(=O)O (stereo not drawn) | radio-HPLC, co-eluting peaks pooled | human, urine | dose not given, 0 to 96 h, sample holds 4.16% dose | relative to: sample radioactivity | share of radioactivity | 1.7%
COc1c2c(cc3oc(COC4OC(CO)C(O)C(O)C4O)cc(=O)c13)OC(C(C)(C)O)C2 (stereo not drawn) | – | simulated gastric fluid with pepsin | 2 h, pH 1.2, 37 °C | – | transformation rate | 1.55%
CC[C@H](C)[C@H](NC(=O)CNC(=O)CNC(=O)c1ccc2c(c1)C(=O)OC21c2ccc(O)cc2Oc2cc(O)ccc21)C(=O)N[C@@H](Cc1ccc(O)cc1)C(=O)N[C@@H](C)C(=O)N(C)CC(=O)N1CCC[C@H]1C(=O)N(C)[C@@H](Cc1ccccc1)C(=O)N[C@@H](CCCCN)C(=O)N[C@@H](CCCCN)C(=O)N[C@@H](CCCCN)C(N)=O | CE-LIF | Baf/BCR-ABL cytosolic lysate (mouse) | 60 min | – | C-terminal carboxylate fragment share | 43 ± 2%
C[N+](C)(C)CC(CC(=O)[O-])OC(=O)CCC(=O)Nc1ccn([C@@H]2O[C@H](CO)[C@@H](O)C2(F)F)c(=O)n1 (stereo partly drawn) | – | THU-treated rat plasma | 3200.00 ng/mL, 1 h, 20 °C, bench-top stability, high QC | – | measured concentration | 3170 ± 150 ng/mL
CC(C)[C@H](NC(=O)[C@@H]1CCCN1C(=O)[C@H](CCCNC(=N)N)NC(=O)[C@H](CS)NC(=O)[C@H](Cc1c[nH]c2ccccc12)NC(=O)[C@H](CCCNC(=N)N)NC(=O)[C@@H](Cc1ccccc1)NC(=O)[C@H](Cc1c[nH]cn1)NC(=O)[C@H](CCC(=O)O)NC(=O)[C@H](CS)NC(=O)[C@H](CS)NC(=O)COCCOCCNC(=O)[C@@H]1CC(=O)N[C@@H](CCCNC(=N)N)C(=O)NCC(=O)N[C@@H](CC(=O)O)C(=O)N[C@H](Cc2ccc(O)cc2)C(=O)N1)C(N)=O [technetium-99m labelled] | – | nude mouse, M21 melanoma xenograft, muscle | intravenous, 2 h | – | tissue uptake | 0.14 ± 0.16 %ID/g
CC(=O)N([O-])CCCCCNC(=O)CCC(=O)N([O-])CCCCCNC(=O)CCC(=O)N([O-])CCCCCN.[89Zr+4] | radio-iTLC | aqueous buffer | 1 h, pH 7.0, 37 °C, EDTA challenge, added: 100-fold excess EDTA | – | intact complex | 95.9 ± 0.7%
Cn1c(=O)oc2ccc(-c3ccc(CC(C#N)NC(=O)C4CNCCCO4)c(F)c3)cc21 (stereo not drawn) | – | human | oral, 40 mg once daily, TEAE, multiple ascending dose | – | urine RBC positive incidence | 0%
CCCC[C@@H]1NC(=O)[C@@H](NC(=O)[C@H](CCC(=O)O)NC(=O)CNC(=O)CN2CCN(CC(=O)O)CCN(CC(=O)O)CCN(CC(=O)O)CC2)CCCCNC(=O)C[C@@H](C(N)=O)NC(=O)[C@H](C(C)C)NC(=O)[C@@H]2CCCN2C(=O)[C@H](CCCNC(=N)N)NC(=O)CNC(=O)[C@H](Cc2c[nH]c3ccccc23)NC(=O)[C@H](CCCNC(=N)N)NC(=O)[C@@H](Cc2ccccc2)NC(=O)[C@H](Cc2c[nH]cn2)NC(=O)[C@H](CCC(=O)O)NC1=O [gallium-67 labelled] | – | normal C57 mice, stomach | intravenous, 0.037 MBq/mouse, 4 h | – | tissue uptake | 0.28 ± 0.12 %ID/g
OCc1cn(Cc2ccc(-c3noc(-c4ccc(OCC[18F])c(C(F)(F)F)c4)n3)cc2)nn1 | – | female Lewis rat, lung | intravenous, 60 min | – | tissue uptake | 1.67 ± 0.09 %ID/g
C=CC(=O)Nc1cc(Nc2nccc(-n3ccc4nc(OC)ccc43)n2)c(OC)cc1N(C)CCN(C)C | – | BALB/c nude mouse, H1975 intracranial tumour, plasma | oral, 60 mg/kg, 1 h | – | concentration | 2700 ng/mL
O=C([O-])CN1CCN(CC(=O)[O-])CCN(CC(=O)NCC2CCC(C(=O)NC(Cc3ccc4ccccc4c3)C(=O)NCCCCC(NC(=O)NC(CCC(=O)O)C(=O)O)C(=O)O)CC2)CCN(CC(=O)[O-])CC1.[44Sc+3] (stereo not drawn) | transmetallation stability | – | 4 h, 37 °C, added: Fe3+ 10 mM | – | intact complex | 96.7 ± 0.5%
CC(C)c1cnc(-c2cc(Cl)ccc2F)cc1Nc1ccncc1C(=O)NC(CO)CO | measured: Vomiting | solid tumour patients | oral, dose not given, phase I monotherapy | – | treatment-related adverse events | 9.5%
CCCCCCCCCCCCCCCC(=O)N[C@@H](CCCCN)C(=O)N[C@@H](CCCCN)C(=O)N[C@@H](CO)C(=O)N[C@@H](CCCNC(=N)N)C(=O)N[C@@H](C)C(=O)N[C@@H](CC(C)C)C(=O)N[C@@H](Cc1ccccc1)C(N)=O | – | cynomolgus monkey, female | 30 mg/kg, day 5 | – | activated partial thromboplastin time | 27.1 ± 1.8 s
CCOC(=O)CN1CCN(CC(=O)OCC)CCN(Cc2cc(-c3nc4ccccc4s3)cc(OC)c2O)CC1 | UV-Vis pH titration | – | 25 °C, ionic strength 0.1 M NaCl | – | pKa4 | 11.4
C[C@](C#N)(COc1cc(C#N)ccc1C(F)(F)F)NC(=O)c1ccc(S(=O)(=O)C(F)(F)F)cc1 | – | parasitized calves, plasma | oral, 2.5 mg/kg of MNP | relative to: compound over MNP | AUC ratio | 6 and 5.99
COCCOCCOCCOCCOCCOCCOCCOCCC(=O)NCCCc1cc2cc3nc(cc4[nH]c(cc5nc(c(OC)c1[nH]2)C(=O)C5(C)C)cc4CCc1ccc(C(=O)O)cc1)CC3(C)C | – | water with 5% DMF | room temperature | – | Qy absorption maximum | 672 nm
Cc1cccc(Cn2c(OC3CCN(c4ncc(C)s4)CC3)nc3c2c(=O)n(C)c(=O)n3C)c1 | metabolic stability | rat, liver microsomes | – | – | half-life | 2 min
CCCC[C@H](NC(=O)CN1CCC(NC(=O)CN2CCN(CC(=O)O)CCN(CC(=O)O)CCN(CC(=O)O)CC2)CC1)C(=O)N[C@H]1CC(=O)NCCCC[C@@H](C(N)=O)NC(=O)[C@H](Cc2c[nH]c3ccccc23)NC(=O)[C@H](CCCNC(=N)N)NC(=O)[C@@H](Cc2ccccc2)NC(=O)[C@H](Cc2c[nH]cn2)NC1=O [gallium-68 labelled] | – | male C57BL/6J mice, B16-F10 tumours, spleen | intravenous, 1 h, blocking study, added: 100 µg non-radioactive Ga-peptide | – | tissue uptake | 1.1 ± 0.5 %ID/g
C=CC(=O)OCCCCCCOC(C)(C)O[C@@H](C(=O)O[C@H]1C[C@@]2(O)[C@@H](OC(=O)c3ccccc3)[C@@H]3[C@]4(OC(C)=O)CO[C@@H]4C[C@H](O)[C@@]3(C)C(=O)[C@H](OC(C)=O)C(=C1C)C2(C)C)[C@@H](NC(=O)c1ccccc1)c1ccccc1 | – | phosphate buffer, 40% acetonitrile | 50 µM, pH 5.0, 37 °C | – | hydrolysis half-life | 57.3 min
NCCCC[C@H](NC(=O)[C@@H]1CCCN1C(=O)[C@@H]1CSSC[C@H](NC(=O)CNC(=O)CNC(=O)CN)C(=O)N[C@@H](Cc2ccc(O)cc2)C(=O)N[C@@H](Cc2ccccc2)C(=O)N[C@@H](CCC(N)=O)C(=O)N[C@@H](CC(N)=O)C(=O)N1)C(=O)NCC(N)=O | – | male Sprague Dawley rats | iv, single dose | – | LOAEL (paleness, lethargy) | 0.15 mg/kg

Repeated from above:
SMILES | assay | test system | setting | how to read | measurement | value
OCc1cn(Cc2ccc(-c3noc(-c4ccc(OCC[18F])c(C(F)(F)F)c4)n3)cc2)nn1 | – | female Lewis rat, lung | intravenous, 60 min | – | tissue uptake | 1.67 ± 0.09 %ID/g
C=CC(=O)Nc1cc(Nc2nccc(-n3ccc4nc(OC)ccc43)n2)c(OC)cc1N(C)CCN(C)C | – | BALB/c nude mouse, H1975 intracranial tumour, plasma | oral, 60 mg/kg, 1 h | – | concentration | 2700 ng/mL
